# Published values gathered from unrelated publications.
# Every numbered part comes from another study and shows a few of its results, in no order. Positions count from the first letter of the parent shown.

# Sample 1 — method: aptamer microarray, sandwich; form: DNA with 2'F-ANA; sample: in vitro; concentration: 200 nM; added: Cy3 exosite-II aptamer, 400 nM; direction: higher = stronger binding; sequence: GGTTGGTGTGGTTGG
# Target: Prothrombin, mature alpha-thrombin (F2, Homo sapiens, UniProt P00734)
# Setting: whole 15-mer aptamer, many near background
Modification,mean fluorescence intensity [a.u.]
2'F-ANA at 1 2 3 7 9 10 12 13 15,89.9
2'F-ANA at 4 6 7 8 11 12 13,363
2'F-ANA at 5 6 7 10 12 13 15,58.4
2'F-ANA at 4 5 8 12 14 15,77.6
2'F-ANA at 3 5 6 9 10 11 13,66.6
2'F-ANA at 2 3 6 7 10 11 13 15,285
2'F-ANA at 4 8 9 10 11 12 13 14 15,53.7
2'F-ANA at 1 2 3 8 9 10 12 14,54.7
2'F-ANA at 1 3 5 6 10 13 14,47.1
2'F-ANA at 3 4 6 10 11 12 13 14,166

# Sample 2 — method: protein-binding microarray; form: double-stranded DNA, one strand shown; sample: in vitro; concentration: 250 nM; setting: 60-bp whole probe; added: salmon DNA 0.4 mg/ml; reference: random background probes; direction: higher = stronger binding; shared flanks, not repeated: GCCTAGCAC … GTCTTGATTCGCTTGACGCTGCTG
# Target: Interferon regulatory factor 7, full length, phosphomimetic (IRF7, Homo sapiens, UniProt Q92985, residues 1-503, S101K/S471D/S472D/S475D/S476D/S477D/S483D/S484D/S487D)
# Residues (chain): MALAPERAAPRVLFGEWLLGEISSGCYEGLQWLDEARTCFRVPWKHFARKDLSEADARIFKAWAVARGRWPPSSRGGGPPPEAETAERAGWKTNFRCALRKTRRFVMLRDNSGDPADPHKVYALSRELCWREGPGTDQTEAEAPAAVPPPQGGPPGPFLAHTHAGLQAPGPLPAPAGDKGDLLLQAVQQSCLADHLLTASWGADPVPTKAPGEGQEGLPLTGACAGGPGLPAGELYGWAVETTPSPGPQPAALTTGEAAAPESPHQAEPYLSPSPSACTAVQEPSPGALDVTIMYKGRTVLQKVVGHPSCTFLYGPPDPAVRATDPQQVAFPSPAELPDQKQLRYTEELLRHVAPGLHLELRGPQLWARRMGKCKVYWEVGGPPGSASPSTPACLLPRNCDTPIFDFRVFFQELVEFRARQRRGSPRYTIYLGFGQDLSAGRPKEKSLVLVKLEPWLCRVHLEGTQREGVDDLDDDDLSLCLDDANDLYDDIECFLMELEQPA
Sequence,log fluorescence [z-score]
TCAGAATTTACTTTCTACGTGTGCTAG,-0.0415
TTAGGTATCCTTTTCCCTTAGTGCTAG,1.94
TTAGATATCACTCTCGATTAGTGCTAG,0.353
TCATTCCTCTTTCTTTGACTGTGCTAG,2.68
GACTATCTCAGTATCGAGACGTGCTAG,0.655
TTTTTTTTTTGTATTTTTGAGTGCTAG,0.847
TTAAATTTTAATAACACAGAGTGCTAG,-0.212
TTAGATCTCAGACTGGGTTAGTGCTAG,0.0575
GACGGACTGAGTCTCGAGACGTGCTAG,-0.108
CTAGGTTTCGGGACTGGGTTAGTGCTA,4.39

# Sample 3 — target: CCNE2, cyclin fold, Cln2 fusion (human); method: yeast growth competition, sequencing; sample: yeast; setting: strong parent motif; reference: not given; direction: higher = stronger binding
# Starting sequence: E2F1 docking peptide (human); PPVKRRLDLETDH
Change,normalised enrichment score
P1T,1.18
R6W,0.191
R6Q,0.642
P2W,0.931
P1H,1.35
V3F,0.534

# Further values, each from its own experiment
Molecule,target,assay,test system,conditions,scale,endpoint,result
"PhoQ, residues 284 288 289 292 302 303 GNNTDL","PhoP, residues 12 14 15 18 19 TQAIL (Escherichia coli, UniProt P23836)","Sort-seq, item: YFP reporter",E. coli,"PhoQ-PhoP variant library, added: 10 µM Mg2+","reference: high Mg2+ state, higher = stronger signaling",fold induction,2.97

# Some of these lines once more (sample 1):
Modification,mean fluorescence intensity [a.u.]
2'F-ANA at 3 5 6 9 10 11 13,66.6
2'F-ANA at 2 3 6 7 10 11 13 15,285
2'F-ANA at 4 8 9 10 11 12 13 14 15,53.7
